Measurements gathered from unrelated publications.
Every numbered part comes from another study and shows a few of its results, in no order. Changes are numbered by the printed parent chain.

Series 1
Target: ABI1, truncated, D143A, DHFR fusion (Arabidopsis thaliana)
Technique: DHFR PCA, deep sequencing
Sample: yeast
Notes: methotrexate growth selection, single substitutions
Added: (+)-ABA 4.8 µM
Relative to: wild-type fitted maximum
Direction: higher = stronger binding
Starting sequence: PYL1, truncated, DHFR fusion (Arabidopsis thaliana); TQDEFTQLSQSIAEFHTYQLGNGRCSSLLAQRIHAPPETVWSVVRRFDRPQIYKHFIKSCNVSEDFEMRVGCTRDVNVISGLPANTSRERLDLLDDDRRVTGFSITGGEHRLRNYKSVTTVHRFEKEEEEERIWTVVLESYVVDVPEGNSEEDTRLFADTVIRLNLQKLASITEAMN; partner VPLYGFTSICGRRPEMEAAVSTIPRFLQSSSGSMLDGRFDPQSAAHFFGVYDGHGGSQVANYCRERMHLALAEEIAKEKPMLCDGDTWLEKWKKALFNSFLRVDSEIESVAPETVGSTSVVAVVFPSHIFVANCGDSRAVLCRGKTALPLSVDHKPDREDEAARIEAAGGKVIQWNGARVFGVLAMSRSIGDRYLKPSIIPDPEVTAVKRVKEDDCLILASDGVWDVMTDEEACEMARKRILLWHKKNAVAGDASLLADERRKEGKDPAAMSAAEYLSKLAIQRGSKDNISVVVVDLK
Under “relative binding score”, `I33G` is recorded as -0.348%.
`P36M` — result for “relative binding score”: 51.3%.
`M68I` — result for “relative binding score”: 73.2%.
`A13I` — result for “relative binding score”: 55.2%.
Under “relative binding score”, `E127C` is recorded as 71%.
For `R98T`, “relative binding score” read 21.5%.
`E174D`: “relative binding score” 4.83%.
For `C72E`, “relative binding score” read 69.2%.
For `S104R`, “relative binding score” read 2.06%.
`S63A` — result for “relative binding score”: 80.2%.
`E38S` — result for “relative binding score”: 55.5%.
For `D48C`, “relative binding score” read -38.2%.

Series 2
Target: Ras GTPase-activating protein-binding protein 1, C-terminal RGG region (G3BP1, Homo sapiens, UniProt Q13283)
Sequence of UniProt Q13283 (whole entry, looked up): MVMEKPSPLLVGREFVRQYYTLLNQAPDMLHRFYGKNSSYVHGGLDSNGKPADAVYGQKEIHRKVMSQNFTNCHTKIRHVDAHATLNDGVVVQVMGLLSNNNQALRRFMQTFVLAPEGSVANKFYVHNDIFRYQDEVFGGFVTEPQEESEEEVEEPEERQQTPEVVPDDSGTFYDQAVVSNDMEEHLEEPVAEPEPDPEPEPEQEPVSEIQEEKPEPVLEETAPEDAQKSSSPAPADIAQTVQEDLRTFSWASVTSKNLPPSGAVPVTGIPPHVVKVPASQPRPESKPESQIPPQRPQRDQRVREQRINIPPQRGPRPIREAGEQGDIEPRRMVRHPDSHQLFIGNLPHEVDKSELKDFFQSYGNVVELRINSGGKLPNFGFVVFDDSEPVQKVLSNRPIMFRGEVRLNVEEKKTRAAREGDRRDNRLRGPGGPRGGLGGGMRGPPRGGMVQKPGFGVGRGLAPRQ
Technique: RNA Bind-n-Seq
Form: RNA
Sample: in vitro
Concentration: 1 µM
Notes: whole 134-nt RNA, ends assumed
Added: 150 mM KCl
Relative to: input library
Direction: higher = stronger binding
All sequences stand within: GGGAGUUCUACAGUCCGACGAUC … UGGAAUUCUCGGGUGUCAAGG
With `AGUCCUGUGCUACACAUCGUAUGUACCGAAUCAAACCCAAACCCCCAAAUUUUUAAAAAAGUAUUAUGUUACGCCGUUCGGAUCUGCACU` the log2 enrichment was -0.876.
For `UCCUCAAGUCCUGUGCUACACAUCGUAUGUACCGAAUCGGGGUGGUGGUGGGAAAGUAUUAUGUUACGCCGUUCGGAUCUGCACUUCCAG`, the log2 enrichment was 0.274.
For `GUCCUGUGCUACACAUCGUAUGUACCGAAUCGGGUUUUUGGUUUUUGGGGUUUUUGGGGAAAGUAUUAUGUUACGCCGUUCGGAUCUGCA`, the log2 enrichment was -0.792.
The log2 enrichment of `CAAGUCCUGUGCUACACAUCGUAUGUACCGAAUCGGAAAGGAAAAAAAGGAAAGGAAAGUAUUAUGUUACGCCGUUCGGAUCUGCACUUC` is reported as -2.
The log2 enrichment of `CAAGUCCUGUGCUACACAUCGUAUGUACCGAAUCGGUUUUUGGAAAAAAAGGAGGAAAGUAUUAUGUUACGCCGUUCGGAUCUGCACUUC` is reported as -1.86.
With `CAAGUCCUGUGCUACACAUCGUAUGUACCGAAUCGGUUUUGGGUUUUGGUUUUGGAAAGUAUUAUGUUACGCCGUUCGGAUCUGCACUUC` the log2 enrichment was -1.34.
With `GCAGGAAGUAAAAACAAAUGGAAAUGCUUCGGAUAGUGGCAGGGGUGGGGGUUGCUAAGGAAAGGGCGGGAUGGGAGUGGGUAAAGAGUU` the log2 enrichment was 1.35.
With `ACCAUGCAGGUGGGCAUCUUUGGGAAGUGGGGCAAGGGGGGGAUAGGGAGGGUGGUAACACUUUGGGAACAGGUGGUCCCAGGUCGUUUC` the log2 enrichment was 2.09.
With `UUCCUCAAGUCCUGUGCUACACAUCGUAUGUACCGAAUCGGUGGGUGGUGGAAAGUAUUAUGUUACGCCGUUCGGAUCUGCACUUCCAGC` the log2 enrichment was -0.344.
For `UCAAGUCCUGUGCUACACAUCGUAUGUACCGAAUCGGGGAAGGGGAAGGGGAAGGAAAGUAUUAUGUUACGCCGUUCGGAUCUGCACUUC`, the log2 enrichment was -0.486.
`GUCCUGUGCUACACAUCGUAUGUACCGAAUCGGCCCCCGGGCCCCCGGGGCCCCCGGGAAAGUAUUAUGUUACGCCGUUCGGAUCUGCAC` has a log2 enrichment of -1.4.
`CCUCAAGUCCUGUGCUACACAUCGUAUGUACCGAAUCGGGAGGGAGGGUGGGAAAGUAUUAUGUUACGCCGUUCGGAUCUGCACUUCCAG` gave a log2 enrichment of 1.97.
`ACCAUGCAGUUGGGCAUCUUUGGGAAGUGGGGCAAGGGGGGGAUAGGGAGGGGGGUAACACUUUGGGAACAGGUGGUCCCAGGUCGUUUC` has a log2 enrichment of -1.13.

Series 3
Target: RNA binding protein fox-1 homolog 2, RRM domain, GST-SBP tag (RBFOX2, Homo sapiens, UniProt O43251-10, residues 100-194)
Technique: RNA Bind-n-Seq
Form: RNA
Sample: in vitro
Concentration: 365 nM
Notes: natural RNA segment, single round, ends assumed
Relative to: no-protein control
Direction: higher = stronger binding
All sequences stand within: GGGAGUUCUACAGUCCGACGAUC … UGGAAUUCUCGGGUGCCAA
Residues (chain): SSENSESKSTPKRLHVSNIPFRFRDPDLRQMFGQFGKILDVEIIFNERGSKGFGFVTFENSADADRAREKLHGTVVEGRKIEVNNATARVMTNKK
`GGGUGACUGCUCUGAGAGGCACUUCACUCACAGGCCUGUGGGAUGCUCCAUGGGGCCCUGCUGGCUCCAUGGGGCCCAGGUGCAAAGGGUUUCUGAAAAACAGCAGGAUU` — result for “RBNS enrichment (R)”: 0.247.
For `AAUGCAUUCUUCUGUUGAGGAGUAACAGGUCUCAAUUCUUUUCAAUUAAUUUUAAAAGUCAAUCACUAAGAGCAUCGGCUUUGGGCCCUGAUGGGCAGGCAUUUCCCUGG`, “RBNS enrichment (R)” read 0.622.
For `CUAGGAGCUUUAGAAGUCUUUAUGUUCUUCCUGCCAUCAUUCCUCCUUUUCCCACAGGGAAAGAAAAGUUGGAUCACUAGUGGCCAGCAUCCCCAGAGUUCCGUUAGUAA`, “RBNS enrichment (R)” read 0.244.
`GGCCAUUACUUUCUUUCUCUAAAGUCUCAGGAUGUCUGGAAGCAAGGAAAGACAAAAGACUUGAAGCACCGGGUGCAUGCUGUGUGUCACAAGUGAGGUGGAGAGUUGGC`: “RBNS enrichment (R)” 3.36.
For `GUGGGGCCCUGGAUGGCAGCUCUGGCCCAGACAUGAAUACCUCGUGUUCCUCCUCCCUCUAUUACUGUUUCACCAGAGCUGUCUUAGCUCAAAUCUGUUGUGUUUCUGAG`, “RBNS enrichment (R)” read 0.478.
`UGAGUUCAGAGGCAGCCGGAGCCUGGGGAGCCAUGCCCCAGGCCCUGUGACAUCCCCUCGCCCUGCAUGGAGCCUGUGUGUCACAGAAUCGCCCAACACUCCUGCACAUC`: “RBNS enrichment (R)” 1.34.
For `CUGCAUCCUCGUGGCAAAAUUCUGUAUUCUUAGUGAUUGUUACAAACCCCUUUAUUGCUGUCUGAGAAAGUGAAAGAUUGUGUAUUUCUAUUAAAACAUUUACAAUCAAA`, “RBNS enrichment (R)” read 1.15.
For `AGGCCCCAACCCUGUAAUAGGCAAGGAGGAGGAAUCAGGUGAGGCCCUGCCCCCUUUCCAUUCGUGGGGAAGAAGGCAGGAGAGAGCUGGGAAAUCACAGUUCAUCACUU`, “RBNS enrichment (R)” read 0.244.
`GCCCCUGUCUGGGCACCUCUGCCCUGCCUGUCUGCUGCCCGGAUCCUCCUCACUUAGCACCUAGGGGUGUCAGGGUCGGGAGUAGGACCUGUCCUGACCUCAGGGUUAUA`: “RBNS enrichment (R)” 0.585.
Under “RBNS enrichment (R)”, `GGCCCCCAAGUUCCCUAGCAAGCUGCCAAACCAAAACGGGCACCACCAGCUCAGCUGAGGCAUCCCAGCCAGGCAGGACCCUUGAGGGCCGCUGUAUCCAUGGUGAUGGG` is recorded as 0.258.
`GCCGUCGUUUGUUUUCCAUGGAUGCAGAAGUCCAGGUUUCACCAUCUAUUUUCUGUUUUACUCGAUUUUGGUUUGGAGGGAAAAGGGCAUUAGUUUAAAAUGUCGUUUUU`: “RBNS enrichment (R)” 0.802.

Single results of other studies
The fold induction of `PhoQ, residues 284 288 289 292 302 303 TSTLRA` is reported as 16.3 (PhoP, residues 12 14 15 18 19 VQALL (Escherichia coli, UniProt P23836); Sort-seq, refers to: YFP reporter; E. coli; PhoQ-PhoP variant library, added: 10 µM Mg2+; relative to: high Mg2+ state, higher = stronger signaling).

Repeated from above (series 2):
With `AGUCCUGUGCUACACAUCGUAUGUACCGAAUCAAACCCAAACCCCCAAAUUUUUAAAAAAGUAUUAUGUUACGCCGUUCGGAUCUGCACU` the log2 enrichment was -0.876.
For `GUCCUGUGCUACACAUCGUAUGUACCGAAUCGGGUUUUUGGUUUUUGGGGUUUUUGGGGAAAGUAUUAUGUUACGCCGUUCGGAUCUGCA`, the log2 enrichment was -0.792.
With `UUCCUCAAGUCCUGUGCUACACAUCGUAUGUACCGAAUCGGUGGGUGGUGGAAAGUAUUAUGUUACGCCGUUCGGAUCUGCACUUCCAGC` the log2 enrichment was -0.344.
The log2 enrichment of `CAAGUCCUGUGCUACACAUCGUAUGUACCGAAUCGGAAAGGAAAAAAAGGAAAGGAAAGUAUUAUGUUACGCCGUUCGGAUCUGCACUUC` is reported as -2.
